Experimental data gathered from unrelated publications.
Parts stem from different laboratories: compare values within a part only.

Block 1
Target: Prothrombin, mature alpha-thrombin (F2, Homo sapiens, UniProt P00734)
Method: aptamer microarray, sandwich
Form: DNA with 2'F-ANA
Medium: in vitro
Tested at: 200 nM
Notes: whole 15-mer aptamer, many near background
Added: Cy3 exosite-II aptamer, 400 nM
Direction: higher = stronger binding
Measurement: mean fluorescence intensity
Sequence: GGTTGGTGTGGTTGG
2'F-ANA at 1 2 3 4 5 7 8 9 10 11 12 13 15: 79.1 a.u.
2'F-ANA at 4 5 7 8 9 13 14: 53.7 a.u.
2'F-ANA at 2 3 4 5 6 7 8 9 10 12 13: 124 a.u.
2'F-ANA at 2 3 5 7 8 10 12 13: 59.5 a.u.
2'F-ANA at 3 4 5 9 10 15: 66.2 a.u.
2'F-ANA at 1 2 6 8 9 10 13 15: 55 a.u.
2'F-ANA at 1 2 3 4 7 9 10 11 12 13 15: 64.7 a.u.
2'F-ANA at 1 10 13 15: 54.1 a.u.
2'F-ANA at 3 6 9 10 13 15: 431 a.u.
2'F-ANA at 4 6 9 10 11 12: 98.6 a.u.
2'F-ANA at 3 4 5 8 10 12 13 14 15: 51.3 a.u.
2'F-ANA at 2 5 10 11 14: 51.9 a.u.
2'F-ANA at 1 2 3 4 5 7 8 9 12 13 14 15: 47.4 a.u.
2'F-ANA at 2 3 6 9 10 15: 310 a.u.
2'F-ANA at 2 3 6 7 8 10 15: 344 a.u.
2'F-ANA at 1 3 4 5 6 10 11 13 14: 53 a.u.
2'F-ANA at 1 6 7 8 11 13 14: 58.3 a.u.
2'F-ANA at 4 5 8 13 15: 52.8 a.u.
2'F-ANA at 1 4 5 6 8 11 12 14: 54 a.u.
2'F-ANA at 1 4 5 8 11 13 14 15: 50.4 a.u.

Block 2
Target: PABPC1L2, full length, GST fusion (mouse, UniProt A0ABA7IW68)
Method: RNAcompete
Form: RNA
Medium: in vitro
Tested at: 20 nM
Notes: 7-mer, probes averaged, single round
Relative to: mean of 7-mers
Direction: higher = stronger binding
Measurement: 7-mer Z-score
Residues (chain): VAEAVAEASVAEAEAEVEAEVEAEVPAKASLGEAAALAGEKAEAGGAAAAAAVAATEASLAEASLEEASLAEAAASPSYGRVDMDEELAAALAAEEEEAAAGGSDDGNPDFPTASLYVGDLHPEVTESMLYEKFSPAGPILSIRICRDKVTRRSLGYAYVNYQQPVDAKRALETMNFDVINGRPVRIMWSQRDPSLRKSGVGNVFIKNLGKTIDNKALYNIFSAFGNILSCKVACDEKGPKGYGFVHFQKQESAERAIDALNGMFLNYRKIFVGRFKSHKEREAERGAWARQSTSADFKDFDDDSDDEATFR
GGUCGAA: 0.153
GAUUGUA: -0.191
GCGUACU: -0.151
CUAACUG: -0.195
CCCGAUA: -0.204
AGCCUAG: -0.132
CGGUCGA: -0.141
UGACACG: -0.0935
GACGAGC: -0.0264
AUCACGU: -0.291
UUAGUCA: -0.289
GACAUAU: -0.0844
AUUGCGG: 0.117
CCGCAGU: -0.199
AAAAUAG: 7.25
UACGAAU: -0.13
GCCACCU: -0.257
UCUGCGU: -0.376
GAAUGCU: -0.162
GCCCCAG: -0.231
CGCAACG: -0.13

Block 3
Target: Fragile X messenger ribonucleoprotein 1, C-terminal low-complexity region (Fmr1, Mus musculus, UniProt P35922)
Method: RNA Bind-n-Seq
Form: RNA
Medium: in vitro
Tested at: 200 nM
Notes: whole 134-nt RNA, ends assumed
Added: 150 mM LiCl
Relative to: input library
Direction: higher = stronger binding
Measurement: log2 enrichment
Library: 7-deaza-guanosine replaces G
Shared flanks, not repeated: GGGAGUUCUACAGUCCGACGAUC … UGGAAUUCUCGGGUGUCAAGG
CUCAAGUCCUGUGCUACACAUCGUAUGUACCGAAUCGGGGCGGGCGGGGCGGGAAAGUAUUAUGUUACGCCGUUCGGAUCUGCACUUCCA: -0.554
UCCUGUGCUACACAUCGUAUGUACCGAAUCGGGGCCCCCCGGCCCCCCGGGCCCCCCGGGAAAGUAUUAUGUUACGCCGUUCGGAUCUGC: -0.851
UCCUGUGCUACACAUCGUAUGUACCGAAUCGUGUGUGUGUGUGUGUGUGUGUGUGUGUGAAAGUAUUAUGUUACGCCGUUCGGAUCUGCA: -0.381
CAAGUCCUGUGCUACACAUCGUAUGUACCGAAUCGGGUGGGUUUUUUUGGGUGGGAAAGUAUUAUGUUACGCCGUUCGGAUCUGCACUUC: -0.0421
CCUGUGCUACACAUCGUAUGUACCGAAUCGGGGUUUUUUUGGUUUUUUUGGGUUUUUUUGGAAAGUAUUAUGUUACGCCGUUCGGAUCUG: 0.811
AGUCCUGUGCUACACAUCGUAUGUACCGAAUCGGGGCCCCCGGCCCCCGGCCCCCGGGAAAGUAUUAUGUUACGCCGUUCGGAUCUGCAC: -2.25
UCAAGUCCUGUGCUACACAUCGUAUGUACCGAAUCGGAGGAAAAAAAGGUUUGGAAAGUAUUAUGUUACGCCGUUCGGAUCUGCACUUCC: -1.99
AAGUCCUGUGCUACACAUCGUAUGUACCGAAUCGGGGAGGGGAAAGGGGAAAGGGGAAAGUAUUAUGUUACGCCGUUCGGAUCUGCACUU: 0.928
AGUCCUGUGCUACACAUCGUAUGUACCGAAUCGGUUUUUGGUUUUUGGGGUUUUUGGGAAAGUAUUAUGUUACGCCGUUCGGAUCUGCAC: -1.26
ACCAUGCAGGUGGGCAUCUUUGGGAAGUGGGGCAAGGGGGGGAUAGGGAGGGGGGUAACACUUUGGGAACAGGUGGUCCCAGGUAGUUUC: 0.864
UGGCCCUGGUGGCAUGCGGGGAGGAAGAGGUGGCCUCAUGGAUCGUCGUGGUCCCGGUGGAAUGUUCAGAGGUGGCCGUGGUGGAGACAG: 0.691

Block 4
Target: RNA binding protein fox-1 homolog 2, RRM domain, GST-SBP tag (RBFOX2, Homo sapiens, UniProt O43251-10, residues 100-194)
Method: RNA Bind-n-Seq
Form: RNA
Medium: in vitro
Tested at: 365 nM
Notes: natural RNA segment, single round, ends assumed
Relative to: no-protein control
Direction: higher = stronger binding
Measurement: RBNS enrichment (R)
Shared flanks, not repeated: GGGAGUUCUACAGUCCGACGAUC … UGGAAUUCUCGGGUGCCAA
Target sequence (chain): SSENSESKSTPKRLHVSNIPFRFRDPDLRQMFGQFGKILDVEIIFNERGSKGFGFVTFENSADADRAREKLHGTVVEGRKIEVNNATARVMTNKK
CUAUUCCACCACGGCUGUCGUCACCAAUCCCAAGGAAUGGGGACUUCUCCUCCAGUGGACCUGAAGGACGAGGGAUGGGAUUUCAUGUAACCAAGAGUAUUCCAUUUUUA: 0.155
UGGCUAAAGCCAGGAAGUAAGGGACACGAACUCAUUAGACUAUAACUUGAACUGAGUUGCAUCUCAUUUUCUUCUGUAAAAACAAUUACAGUAGCACAUUAAUUUAAAUC: 0.904
AGUCACGUGGGGGAAGACCUCAGCCACAGCUGUAAGCAGCUCUCUGCCAGCCACAUGGCCGGGGACCGAAAAACUCCCGUGGGAGAUUUUGGCCCCAACCCACACAGGCC: 0.206
UUUUUAAUCUCAAAAGAGAGAGAUGUGUUUAAUGGACACAAGCUGUAGUUCUCAGCAAAACUUUGUCAGUUGGCACUGUUUACAAGUCUGUUAGCUGCAUAAGCUCAAUA: 0.278
GCAGAUUUUUCUGAAAUGAGAUGUUUAGAUGAGCAUACUACUAAAGCAGAGUGGAAAAAUCUGUCUUUAUGGUAUGUUCUAGGUGUAUUGUGAUUUACUGUUAGAUUGCC: 0.506
AUUUUUUUACAAUUCAUUUUGACUCUCAUGGCUGACCAUGUCAUUAUGUCUUUAAAUUUUGGUAAAUAUGUAGAUACCAAGCAUUAAUAACUAAUGCACACAGAAAUUUA: 0.706
GUCUUGAAUCUGCCAAUCUGUAUGUUAAAACAGCUGACAGAUUGUAAAGCUAUUGCACUGCGUUGCCCUGGACAAGUCUGAAAUUGGUAUAAAAGACAAGGUGCCCAAGG: 0.562
AAAUAGCAGUUUUCCUAACUUGAUUAGCUUGAGCUGACAGACUGUUAGAAUACAGUUCUCUGGCCACAGCUGAUGAGGGCUUUCUGUACUGCACACAGAUUGUGUACUGC: 0.304
AAGCACAGCCUUCCCUGUUCCGUCCCAGCGGGAGCUGGUGUUAGGGGUCCCAAGGUUGCCACCCACGUGCCCAGCUGUCCCACGCUGCAGCGCAGACGGCCACGCCCACA: 0.255
AGCCGAGCCCUUGGCCCUAGCCCUUGCUGCGCAGAACAGCUUGCUGGCAGCUGGCAUCGUGUCGCUUUAUCUGCCCCCGCACAGUUUGCUUUGUACGUCUGCCAAGAAUC: 0.794
UGGCCAGCCCCGCCCACUGCCAGGGACGCCGAGGGCCUGACCAGGGGCCCCGAGGCCUGAGGGCCCCUCCCCUGUCCCCACCUCAGUGCCUGCGGGGCCCUGAGCCUCCC: 0.502
GACUCCACCCCACCGUGGAAAGGGAGCUUGAAGCAGAAAAGAGGGCGCCUCGGAGCCAAUGUUGAGCCUUGAAGUUCAAAGGAAGAAGUAGCCAAAUCUUUUUCUAAUAA: 0.575

For quick reference, copied from above (block 1):
2'F-ANA at 4 5 7 8 9 13 14: 53.7 a.u.
2'F-ANA at 2 3 4 5 6 7 8 9 10 12 13: 124 a.u.
2'F-ANA at 4 5 8 13 15: 52.8 a.u.
2'F-ANA at 2 3 5 7 8 10 12 13: 59.5 a.u.
2'F-ANA at 2 3 6 9 10 15: 310 a.u.
2'F-ANA at 3 4 5 9 10 15: 66.2 a.u.
2'F-ANA at 3 4 5 8 10 12 13 14 15: 51.3 a.u.
2'F-ANA at 1 2 3 4 5 7 8 9 10 11 12 13 15: 79.1 a.u.
2'F-ANA at 1 4 5 6 8 11 12 14: 54 a.u.
2'F-ANA at 1 4 5 8 11 13 14 15: 50.4 a.u.
